# Measurements gathered from unrelated publications.
# Every numbered part comes from another study and shows a few of its results, in no order. Changes are numbered by the printed parent chain.

# Study 1 — method: RNA Bind-n-Seq; molecule type: RNA; sample: in vitro; tested at: 365 nM; relative to: no-protein control; reading: higher = stronger binding
# Target: RNA binding protein fox-1 homolog 2, RRM domain, GST-SBP tag (RBFOX2, Homo sapiens, UniProt O43251-10, residues 100-194)
# Setting: natural RNA segment, single round, ends assumed
# Construct (chain): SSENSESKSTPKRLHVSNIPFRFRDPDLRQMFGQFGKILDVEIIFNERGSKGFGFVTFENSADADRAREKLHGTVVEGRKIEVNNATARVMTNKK
Sequence,RBNS enrichment (R)
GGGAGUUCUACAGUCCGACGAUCUAAGAGUUAUAACUAUGUAAACAUUGUAUAAUGAUAUGAAAUAAAACGCACAUUUAGGACAUUUUCUAAUCUGGUGGUCCUGUCGUCUGUAUGGUUCUGUUGUCGUUAUUUGGAAUUCUCGGGUGCCAA,0.485
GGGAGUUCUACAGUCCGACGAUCCUGGUCCGCAUAUAUAAAGGUCACCAGGAAGCACAGUCAUAAACCUGGUCCCCCACCUAUCAGCACCAACUCUCAGUUCAUCAGGGUUGAGAAAGGACACUGGAUUGAGCUGGAAUUCUCGGGUGCCAA,0.592
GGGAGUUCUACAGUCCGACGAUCGGAGCAGGGACAGACAUCUGUUGGUAUUGCCCAGCUCCUGUAUCUGUGAUACAUUCCCUGGCUGAGGACUCGGGGCUGGCCUGGGCAUUUGCCUGGACUGCUGGAAACACUGGAAUUCUCGGGUGCCAA,0.253
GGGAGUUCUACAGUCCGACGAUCUGGGUGUUGCUGCCCUGCUUGUCAGCUCUGCAAAUGAGCGCUGCUCCCCAGCUUGCGCAGAGACGUGUGCGUCCCACGUCCCUUGCCGUGCUCUCCCUUUUGGUAGGUGUUGGAAUUCUCGGGUGCCAA,0.355
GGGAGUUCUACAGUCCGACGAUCACCACAGGCAAUUACUAGCCCUAGUUGAUAGGUGAGGUGGGUGAAGAAGGCUGGAGGUGACAUGUCCGAGGUCACACAACAAAGCAGCAUGCAGGAACUAGAAACACAUCUGGAAUUCUCGGGUGCCAA,8.67
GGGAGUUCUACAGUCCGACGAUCAGCAUUGCGCAAUUAGGUUGUUCCUUAUUUGCUUUGUUGUACUACCUGUGUAUAUAGUUUUUAUCUUUUACUCUGUAGCACAUAAACGUUAGGGAUGGGAGGGCAGGGUGUGGAAUUCUCGGGUGCCAA,0.425
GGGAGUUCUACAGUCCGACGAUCGUUUGAUAGACUAGUGCAGCGAUCAGCCAUAUGAUUGAGAGCUACUUUGGGGAUAUAUGGUACGUUGUUUUUGUUUUUUAGACUUAAUAAAGGACAACACGAGCUGGUCUUGGAAUUCUCGGGUGCCAA,0.543
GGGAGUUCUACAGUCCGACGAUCAAAAGGUUUUUGUAUUAGAAUCUGUUUCCUUAAAAAUUGAUUUGACUCCUGUUCUUAAACACAAGUGGUUUUUCCUAAUUCCAGAGGAACUGGACGUCACCAAACAAGGUUGGAAUUCUCGGGUGCCAA,0.419

# Study 2 — target: CCNE2, cyclin fold, Cln2 fusion (human); method: yeast growth competition, sequencing; sample: yeast; setting: weak parent motif; relative to: not given; reading: higher = stronger binding
# Parent: RB1 docking peptide (human); PKPLKKLRFDIEG; partner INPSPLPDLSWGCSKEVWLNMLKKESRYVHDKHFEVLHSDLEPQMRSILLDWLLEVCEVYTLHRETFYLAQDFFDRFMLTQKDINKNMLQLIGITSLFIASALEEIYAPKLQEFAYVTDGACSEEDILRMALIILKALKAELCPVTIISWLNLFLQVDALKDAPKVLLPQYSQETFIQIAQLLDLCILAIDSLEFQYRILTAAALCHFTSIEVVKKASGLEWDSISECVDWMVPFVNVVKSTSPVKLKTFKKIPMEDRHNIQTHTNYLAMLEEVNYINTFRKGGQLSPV
Change,normalised enrichment score
L4F,1.08
E12S,0.583
K5Q,0.416
L4K,-0.278
L4Q,0.693
F9V,0.825
K6W,0.154
R8L,0.405
K5V,0.0655
K6L,0.173

# Study 3 — method: protein binding microarray; molecule type: double-stranded DNA, one strand shown; sample: in vitro; tested at: not given; relative to: not given; reading: higher = stronger binding
# Target: Histone acetyltransferase KAT6A, winged helix 2, GST fusion (KAT6A, Homo sapiens, UniProt Q92794, residues 85-181)
# Setting: 8-mer, flanks averaged, mean of 2 arrays, mostly near background
# Residues (chain): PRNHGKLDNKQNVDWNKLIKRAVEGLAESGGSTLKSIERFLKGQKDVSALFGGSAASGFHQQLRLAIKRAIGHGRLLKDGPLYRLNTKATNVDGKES
Sequence,E-score
AATGAGAT,-0.0605
CTGCTTTA,0.113
TCCGGCCA,0.137
AGATATAT,-0.0381
AATTGAAT,-0.0499
ACCCCCCG,0.0342
AGTGCGGG,0.2
GAAGATTC,0.124
CCAGTCGC,-0.0923
CACAACAA,0.112
AGTTTCTA,-0.0389
TATCACGA,-0.0288
TACGGATA,0.0815

# Other studies, line by line
Substance,target,assay,system,conditions,scale,endpoint,value
"PhoQ, residues 284 288 289 292 302 303 ASVMEA","PhoP, residues 12 14 15 18 19 HEGLL (Escherichia coli, UniProt P23836)","Sort-seq, item: YFP reporter",E. coli,"PhoQ-PhoP variant library, added: 10 µM Mg2+","relative to: high Mg2+ state, higher = stronger signaling",fold induction,11.8

# Repeated from above (study 3):
Sequence,E-score
CACAACAA,0.112
AGATATAT,-0.0381
ACCCCCCG,0.0342
AGTGCGGG,0.2
